Published values collected from several papers.
Every numbered part comes from another study and shows a few of its results, in no order.

Series 1
Target: RING finger protein unkempt homolog, zinc fingers 1-6, GST-SBP tag (UNK, Homo sapiens, UniProt Q9C0B0, residues 30-357)
UniProt Q9C0B0, sequence (30-357, looked up): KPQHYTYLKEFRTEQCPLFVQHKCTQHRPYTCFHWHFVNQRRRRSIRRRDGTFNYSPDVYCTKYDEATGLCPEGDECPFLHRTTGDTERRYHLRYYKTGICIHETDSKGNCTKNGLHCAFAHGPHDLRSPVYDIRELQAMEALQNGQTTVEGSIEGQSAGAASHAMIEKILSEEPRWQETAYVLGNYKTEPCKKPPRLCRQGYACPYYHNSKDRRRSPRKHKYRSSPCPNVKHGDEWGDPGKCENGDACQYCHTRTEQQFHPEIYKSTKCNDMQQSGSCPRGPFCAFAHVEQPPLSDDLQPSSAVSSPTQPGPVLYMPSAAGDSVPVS
Method: RNA Bind-n-Seq
Form: RNA
Medium: in vitro
Concentration: not given
Notes: RNA with constant flanks, human-mouse chimeric sites, ends assumed
Reference: input RNA pool
Reading: higher = stronger binding
Constant ends, left off below: GGGAGUUCUACAGUCCGACGAUC … CAACAGAGGAUUGAGCAUCA
| Oligonucleotide | bound/input enrichment [ratio] |
| --- | --- |
| GAUAAGAAAAGCUUGUUGGAGACCCGCUUGCAUGUCACUGGUAGAGACCUGAGGUGUCAAAUAGCUGAAACCUUUGGAUUUCAAGAAAAUUACAUCAAGAUCGUAAUAAAUAAGAAACAG | 0.269 |
| AAAGUGAUGACUAUGUUUGUCCAACGACAGGUAUUUUCGGAGAGCAAGGAUGAGAUUGCGUUAGUCCUCUAUGGCACAGAUGGCACUGACAAUCCCCUUGCUGGCAAGGACCAGUAUCAG | 0.162 |
| AGAUAUUAAGUAUUUUGAAAAAAUUCAAACAGAUUUGACAAGGGUAGCCAGCUUGGAGUCUAGCAACUUGCCAAUGUGUUUACCAAUCUGGGGGCUUGUUUUUCUUUUCUUCUUUCAAAU | 0.441 |
| CCCCAAUUACCAUCUGUGGUCUGGAACUGCACUCUCUUUUUUAAAAAACAUGUAUACAUUUUAGGGCUGUAGAUUUACUUUCCUAUUUUUGUUUUUCAUUGCUGACUUUUGAGCACAGAA | 1.44 |
| AACAUUUUGUCAAAUUGUUAUGUUCCUGUGAAACAAGUGAACACUCUGAUACACUUCAUCUGCUUGUACAUUUAACUGAUAGAGAAAUGUAAAUAUGUUAAUCCAAGCAAUGUGUCACUU | 0.248 |
| UGGCGCCUGCGCUCCCCACUCGUGUUUUUAAGUGUAUUUUUAUAAGAUACAUGUAUUUGUAAUAGAUCUUUUGUUACAUAAUGCUGAAAACAUCUCUGAGAUUAUGAAAAAUGUUUCAAU | 0.105 |
| CUUAAUGUUAAUAUUUUUGAAUAAAUGAAGCUAAAAUGUCUGCUUUUGGUACAACACGCAUUAAUAAAAGGUUAAGUUUUGUUUUCCCUCCACUGAAUAUUUAACAUACAUCUCAGAAAC | 0.329 |
| CCAAUCGUGGAGCAGUACUUGAAGACAAAAAAGAACUCUAAUAAUUUAAUCAUCAAGUACAUUAGCUGCCGCCUGCUGACACUCAUCAUUAUACUGUUAGCGUGUAUCUACCUGGGCUAU | 0.407 |

Series 2
Target: Replicase polyprotein 1ab, polymerase (rep, Severe acute respiratory syndrome coronavirus 2, UniProt P0DTD1)
Observed: enzyme activity
Action: inhibitor
Concentration: 20 µM
| Structure (SMILES) | inhibition |
| --- | --- |
| NC1CCN(c2cccc(Cl)n2)CC1 | 4.84% |
| COC(=O)C1=C(C)NC(C)=C([N+](=O)[O-])[C@@H]1c1ccccc1C(F)(F)F (racemic) | -21% |
| CC(=O)NC[C@H]1CN(c2ccc(N3CCN(C(=O)CO)CC3)c(F)c2)C(=O)O1 | -3.53% |
| CCOC(=O)O[C@]1(C(=O)OCCl)CC[C@H]2[C@@H]3CCC4=CC(=O)C=C[C@]4(C)[C@H]3[C@@H](O)C[C@@]21C | -1.18% |
| CC(C)(C)NC(=O)[C@@H]1CN(Cc2cccnc2)CCN1C[C@@H](O)C[C@@H](Cc1ccccc1)C(=O)N[C@H]1c2ccccc2C[C@H]1O | -5.62% |
| CCN(CC)CCN(Cc1ccc(-c2ccc(C(F)(F)F)cc2)cc1)C(=O)Cn1c(SCc2ccc(F)cc2)nc(=O)c2c1CCC2 | 4.68% |
| COC1=C(OC)C(=O)C(C/C=C(\C)CC/C=C(\C)CC/C=C(\C)CC/C=C(\C)CC/C=C(\C)CC/C=C(\C)CC/C=C(\C)CC/C=C(\C)CC/C=C(\C)CCC=C(C)C)=C(C)C1=O | -1.73% |
| OC(CCN1CCCCC1)(c1ccccc1)C1C[C@@H]2C=C[C@H]1C2 (stereo partly drawn) | -3.28% |
| S=P(N1CC1)(N1CC1)N1CC1 | 0.6% |
| O=C(O)C1CCCN(CCC=C(c2ccccc2)c2ccccc2)C1 (stereo not drawn) | 36.1% |
| CCCCCCN(CCCCCC)C(=O)Cc1c(-c2ccc(Cl)cc2)[nH]c2ccc(Cl)cc12 | -5.58% |
| C#CCOC(=O)C1=CCCN(C)C1 | -0.38% |
| CC(CN(C)C)C(C)(O)Cc1ccc(Cl)cc1 (stereo not drawn) | -2.47% |

Series 3
Cell line: HEK-293T/ACE2
Concentration: 10 µM
Time: 16 h
Reference: vehicle
| SMILES | viability |
| --- | --- |
| NS(=O)(=O)c1cc2c(cc1Cl)N=C(CSCc1ccccc1)NS2(=O)=O | 101% |
| C=CC1=C(C(=O)O)N2C(=O)[C@@H](NC(=O)/C(=N\OCC(=O)O)c3csc(N)n3)[C@H]2SC1 | 100% |
| CC[C@H](C)C(=O)O[C@H]1C[C@H](O)C=C2C=C[C@H](C)[C@H](CC[C@@H](O)C[C@@H](O)CC(=O)O)[C@H]21 | 98.3% |

Series 4
SMILES: Oc1cc(CNC(=S)/C=C/c2cc(O)c(O)c(Br)c2)cc(O)c1O
rep main protease: Replicase polyprotein 1ab, main protease (rep, Severe acute respiratory syndrome coronavirus 2, UniProt P0DTD1)
| tested on | test | test system | conditions | inhibition |
| --- | --- | --- | --- | --- |
| SARS-CoV-2 | cytopathic effect | Vero E6 | 10 µM | 2.9% |
| rep main protease | enzyme activity, inhibitor | – | 20 µM, primary screen | 79.4% |
| rep main protease | enzyme activity, inhibitor | – | 20 µM, hit confirmation, no DTT | 78.1% |

Excerpt of the above (series 2):
| Structure (SMILES) | inhibition |
| --- | --- |
| CC(=O)NC[C@H]1CN(c2ccc(N3CCN(C(=O)CO)CC3)c(F)c2)C(=O)O1 | -3.53% |
| O=C(O)C1CCCN(CCC=C(c2ccccc2)c2ccccc2)C1 (stereo not drawn) | 36.1% |
